Experimental data from different studies.
Each numbered part is a random draw from the data of one study; scales do not carry over between parts. “And” joins repeats or separate records; there may be more than shown.
Chain of UniProt Q99640 (whole entry, looked up): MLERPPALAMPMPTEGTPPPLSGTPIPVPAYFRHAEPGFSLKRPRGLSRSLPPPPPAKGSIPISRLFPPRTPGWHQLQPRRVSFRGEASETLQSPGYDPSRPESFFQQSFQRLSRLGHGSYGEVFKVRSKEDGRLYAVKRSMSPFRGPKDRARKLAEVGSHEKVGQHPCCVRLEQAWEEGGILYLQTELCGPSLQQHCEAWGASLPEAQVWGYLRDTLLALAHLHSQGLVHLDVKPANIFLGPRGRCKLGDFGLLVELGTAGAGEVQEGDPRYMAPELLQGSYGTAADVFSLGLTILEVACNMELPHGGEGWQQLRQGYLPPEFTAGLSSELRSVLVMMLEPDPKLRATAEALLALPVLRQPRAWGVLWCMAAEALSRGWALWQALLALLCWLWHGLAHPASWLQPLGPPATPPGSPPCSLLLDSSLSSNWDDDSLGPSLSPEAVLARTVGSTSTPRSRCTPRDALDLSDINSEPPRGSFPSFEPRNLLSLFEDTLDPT
Chain of UniProt Q13422 (whole entry, looked up): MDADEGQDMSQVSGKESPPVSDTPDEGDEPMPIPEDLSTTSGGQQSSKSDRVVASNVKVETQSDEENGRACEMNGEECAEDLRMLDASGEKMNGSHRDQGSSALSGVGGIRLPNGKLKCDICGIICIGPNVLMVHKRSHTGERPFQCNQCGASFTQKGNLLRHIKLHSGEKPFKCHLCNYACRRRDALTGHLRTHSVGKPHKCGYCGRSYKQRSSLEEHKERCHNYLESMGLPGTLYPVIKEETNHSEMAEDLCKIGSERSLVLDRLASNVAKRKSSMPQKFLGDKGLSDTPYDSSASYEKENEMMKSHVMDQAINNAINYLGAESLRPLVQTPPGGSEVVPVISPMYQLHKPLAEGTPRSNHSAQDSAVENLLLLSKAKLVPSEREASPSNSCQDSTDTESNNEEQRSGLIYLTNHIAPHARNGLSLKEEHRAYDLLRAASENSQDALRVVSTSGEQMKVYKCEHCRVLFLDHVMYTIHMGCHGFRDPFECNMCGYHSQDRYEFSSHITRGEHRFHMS
Chain of UniProt P9WI81 (whole entry, looked up): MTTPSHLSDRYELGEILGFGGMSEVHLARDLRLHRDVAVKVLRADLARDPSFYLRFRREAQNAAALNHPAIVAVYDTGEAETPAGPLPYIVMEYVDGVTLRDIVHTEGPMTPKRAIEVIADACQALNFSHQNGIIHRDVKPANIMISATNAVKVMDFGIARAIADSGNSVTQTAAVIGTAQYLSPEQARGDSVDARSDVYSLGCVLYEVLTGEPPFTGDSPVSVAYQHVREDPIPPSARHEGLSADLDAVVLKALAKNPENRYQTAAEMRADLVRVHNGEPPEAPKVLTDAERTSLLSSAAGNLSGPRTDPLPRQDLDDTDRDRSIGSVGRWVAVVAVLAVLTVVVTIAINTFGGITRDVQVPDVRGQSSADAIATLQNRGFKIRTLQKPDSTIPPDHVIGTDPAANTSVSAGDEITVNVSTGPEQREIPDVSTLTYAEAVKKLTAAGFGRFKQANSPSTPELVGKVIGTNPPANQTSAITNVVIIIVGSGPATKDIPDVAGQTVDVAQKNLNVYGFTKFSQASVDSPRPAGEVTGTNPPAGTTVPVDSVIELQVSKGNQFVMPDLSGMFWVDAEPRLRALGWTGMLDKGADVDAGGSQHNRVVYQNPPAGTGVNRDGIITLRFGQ

Series 1
SMILES: Cn1cc(-c2cccc(CN3CCC4(CC3)COc3c4ccc4c3CN([C@H]3CCC(=O)NC3=O)C4=O)c2)cn1
Mode: degrader
CRBN/Zinc finger protein Helios: CRBN/Zinc finger protein Helios (Homo sapiens, UniProt Q96SW2+Q9UKS7)
Chain of UniProt Q9UKS7 (whole entry, looked up): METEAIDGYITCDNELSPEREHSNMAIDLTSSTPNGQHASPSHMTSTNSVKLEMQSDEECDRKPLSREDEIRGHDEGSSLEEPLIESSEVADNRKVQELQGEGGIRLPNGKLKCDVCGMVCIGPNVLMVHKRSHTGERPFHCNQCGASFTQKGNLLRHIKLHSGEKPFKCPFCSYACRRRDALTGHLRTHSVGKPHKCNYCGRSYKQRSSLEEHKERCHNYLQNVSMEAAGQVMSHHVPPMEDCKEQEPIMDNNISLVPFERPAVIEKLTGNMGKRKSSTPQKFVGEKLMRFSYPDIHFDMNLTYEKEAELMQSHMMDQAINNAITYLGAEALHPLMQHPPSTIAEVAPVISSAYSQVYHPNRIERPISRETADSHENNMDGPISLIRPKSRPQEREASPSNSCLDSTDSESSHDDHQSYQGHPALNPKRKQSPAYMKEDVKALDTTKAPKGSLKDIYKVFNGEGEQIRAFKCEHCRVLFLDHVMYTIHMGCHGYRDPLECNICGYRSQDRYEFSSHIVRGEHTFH
Chain of UniProt Q96SW2 (whole entry, looked up): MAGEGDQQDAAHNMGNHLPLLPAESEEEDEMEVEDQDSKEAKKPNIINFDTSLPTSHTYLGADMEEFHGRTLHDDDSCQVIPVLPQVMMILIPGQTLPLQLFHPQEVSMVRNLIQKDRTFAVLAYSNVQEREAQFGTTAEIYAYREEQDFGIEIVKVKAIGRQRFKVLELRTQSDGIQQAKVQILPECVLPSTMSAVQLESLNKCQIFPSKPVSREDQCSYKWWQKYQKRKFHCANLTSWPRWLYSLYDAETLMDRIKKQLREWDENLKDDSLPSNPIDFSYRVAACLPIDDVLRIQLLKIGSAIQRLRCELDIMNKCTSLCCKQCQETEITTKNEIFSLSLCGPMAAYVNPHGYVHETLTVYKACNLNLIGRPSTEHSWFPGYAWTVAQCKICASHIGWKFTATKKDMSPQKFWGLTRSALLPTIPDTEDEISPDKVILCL
IKZF4: Zinc finger protein Eos (IKZF4, Homo sapiens, UniProt Q9H2S9)
Chain of UniProt Q9H2S9 (whole entry, looked up): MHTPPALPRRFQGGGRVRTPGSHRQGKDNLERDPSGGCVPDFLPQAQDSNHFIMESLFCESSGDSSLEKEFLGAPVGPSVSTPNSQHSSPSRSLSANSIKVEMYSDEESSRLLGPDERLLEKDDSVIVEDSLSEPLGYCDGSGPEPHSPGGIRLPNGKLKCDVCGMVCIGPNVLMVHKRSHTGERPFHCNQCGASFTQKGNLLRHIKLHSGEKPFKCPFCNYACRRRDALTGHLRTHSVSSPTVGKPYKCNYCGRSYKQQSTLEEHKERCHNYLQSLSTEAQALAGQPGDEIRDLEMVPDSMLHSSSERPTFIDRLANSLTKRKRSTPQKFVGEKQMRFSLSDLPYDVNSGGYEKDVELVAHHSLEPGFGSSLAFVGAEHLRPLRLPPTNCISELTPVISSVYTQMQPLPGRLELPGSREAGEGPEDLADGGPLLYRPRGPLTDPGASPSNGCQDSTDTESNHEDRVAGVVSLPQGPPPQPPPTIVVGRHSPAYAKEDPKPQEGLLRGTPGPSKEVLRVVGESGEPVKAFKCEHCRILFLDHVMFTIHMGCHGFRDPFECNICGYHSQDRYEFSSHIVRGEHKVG
target | technique | cell line | concentration | time | remaining protein
DNA-binding protein Ikaros (Homo sapiens, UniProt Q13422) | HiBiT | HEK293 | 123.5 nM |  | 96.9% and 93.5%
CRBN/Zinc finger protein Helios | flow cytometry | primary human regulatory T cells | 0.1524 nM | 6 h | 100% and 96.5%
CRBN/Zinc finger protein Helios | flow cytometry | primary human regulatory T cells | 4.115 nM | 3 h | 80.1% and 89.4%
IKZF4 | HiBiT | HEK293 | 0.1524 nM | 6 h | 101% and 98.3%
IKZF4 | HiBiT | HEK293 | 4.115 nM | 3 h | 108% and 103%
CRBN/Zinc finger protein Helios | flow cytometry | primary human regulatory T cells | 111.1 nM | 6 h | 12.4% and 8.88%

Further values, each from its own experiment
SMILES | target or system | test | test system | setting | how to read | endpoint | result
C#CCN1C(=O)C(O)(C(=O)O)Oc2cc(F)ccc21 (stereo not drawn) | Arabidopsis thaliana |  |  | foliar spray, 200 µg/mL, 20 days |  | fresh weight inhibition | 58.9%
COc1cc(-c2nc3ccc(C(=O)NCCCN4CCN(c5cccc(C)c5C)CC4)cc3n2C2CCC2)cc(OC)c1OC | Serine/threonine-protein kinase PknB (pknB, Mycobacterium tuberculosis, UniProt P9WI81) | binding, competition with immobilised ligand |  | 1 µM |  | remaining binding | 78%
COc1cc(C(=O)OCCCN2CCCN(CCCOC(=O)c3cc(OC)c(OC)c(OCc4ccc([N+](=O)[O-])cc4)c3)CC2)cc(OC)c1OC |  |  | male CD-1 mouse, dorsal root ganglia | subcutaneous, dose not given, 1.5 h |  | tissue concentration | 269 ng/mL
FC(F)(F)c1ccc(C2=NOC3(NC(c4ccccc4)=NO3)N2c2ccccc2)cc1 (stereo not drawn) | Plasmodium falciparum | SYBR Gold | SB1-A6 | 72 h | baseline: IC50 SB1-A6 over wild type | resistance index | 6 fold
C=CCN1C(=O)C(O)(C(=O)O)Oc2cc(F)ccc21 (stereo not drawn) | Arabidopsis thaliana | hypocotyl length | Col-0, seedlings | 100 µg/mL |  | inhibition | 35.6%
Cc1ccc(O)c(C)c1-c1cnc2[nH]c(-c3cnc(N4CCC(CN5CCN(c6ccc(C(=O)NC7CCC(=O)NC7=O)c(F)c6)CC5)CC4)nc3)cc2c1C#N (racemic) | Membrane-associated tyrosine- and threonine-specific cdc2-inhibitory kinase (PKMYT1, Homo sapiens, UniProt Q99640) | binding, HTRF |  | 1.37 nM |  | inhibition | 7.9% and 10.6%

Excerpt of the above (series 1):
target | technique | cell line | concentration | time | remaining protein
DNA-binding protein Ikaros (Homo sapiens, UniProt Q13422) | HiBiT | HEK293 | 123.5 nM |  | 96.9% and 93.5%
